Published values gathered from unrelated publications.
Each line is one published result; not all experiments were run side by side.
Organism: Pseudomonas aeruginosa

CC[C@H](C)[C@H](NC(=O)[C@H](CC(C)C)NC(=O)[C@H](CCCCN)NC(=O)[C@H](CCCCN)NC(=O)[C@H](CCCCN)NC(=O)[C@H](CCCCN)NC(=O)[C@H](CC(C)C)NC(=O)[C@@H](NC(=O)[C@@H](NC(=O)[C@@H](NC(=O)[C@H](CC(C)C)NC(=O)[C@H](CCCNC(=N)N)NC(=O)[C@H](CO)NC(=O)[C@@H](N)CO)C(C)C)[C@@H](C)CC)[C@@H](C)CC)C(=O)N[C@@H](CO)C(=O)N[C@@H](CCCCN)C(=O)N[C@@H](CCCCN)C(=O)N[C@@H](CCCCN)C(=O)N[C@@H](CCCCN)C(N)=O  MIC (broth microdilution; ATCC 27853; highest value reported): 128 µM
CC1(C)SC2C(NC(=O)C(NC(=O)C3=C(O)C(Cc4ccccc4)NC3=O)c3ccccc3)C(=O)N2C1C(=O)O (stereo not drawn)  MIC (fpvB mutant): 12.5 µg/mL
N=C(N)NCCC[C@H](NC(=O)[C@@H](N)CCCNC(=N)N)C(=O)N[C@@H](Cc1c[nH]c2ccccc12)C(=O)N[C@@H](Cc1c[nH]c2ccccc12)C(=O)N[C@@H](CCC(N)=O)C(=O)N[C@@H](Cc1ccccc1)C(=O)N[C@@H](CCC(N)=O)C(=O)N[C@@H](Cc1ccccc1)C(=O)N[C@@H](CCCCN)C(N)=O  MIC (broth microdilution, optical density): 155 µM
CC[C@H](C)[C@H](NC(=O)[C@H](CC(C)C)NC(=O)[C@H](CCCNC(=N)N)NC(=O)[C@@H](N)CCCNC(=N)N)C(=O)N[C@@H](CC(C)C)C(=O)N[C@H](C(=O)N[C@@H](CCCCN)C(=O)N[C@H](C(=O)NCC(=O)N1CCC[C@H]1C(=O)N[C@H](C(=O)N[C@H](C(=O)N[C@@H](Cc1ccc(O)cc1)C(=O)N[C@@H](CCCCN)C(=O)N[C@@H](Cc1ccc(O)cc1)C(=O)N[C@@H](Cc1ccccc1)C(=O)N[C@@H](CCCCN)C(=O)N[C@@H](CCCCN)C(=O)N[C@@H](CCC(N)=O)C(=O)N[C@@H](CC(C)C)C(=O)N[C@@H](CC(C)C)C(=O)N[C@@H](CCCCN)C(=O)N[C@@H](CC(C)C)C(N)=O)[C@@H](C)CC)[C@@H](C)CC)[C@@H](C)O)[C@@H](C)O  MIC (KCTC 1637, Mueller-Hinton broth; 24 h): 8 µM
C[C@@H](O)[C@H]1C(=O)N2C(C(=O)O)=C(S[C@@H]3CN[C@H](C(=O)N(C)C)C3)[C@H](C)[C@H]12  MIC (1188712, multidrug-resistant): 8 µg/mL
O=C(O)CN(CC(=O)O)CC(=O)O  MIC (IMP-7 producer; 32 µg/mL, MIC of meropenem, with: meropenem): 16 µg/mL
CC(C)(C)Oc1ccc(CC2NC(=O)C(C(=O)NC(C(=O)NC3C(=O)N4C3SC(C)(C)C4C(=O)O)c3ccccc3)=C2O)cc1 (stereo not drawn)  MIC (pvdA mutant): 6.25 µg/mL
CC(C)C[C@H](NC(=O)[C@H](CCCCN)NC(=O)[C@H](CC(C)C)NC(=O)[C@H](CCCCN)NC(=O)[C@H](CC(C)C)NC(=O)[C@H](CCCCN)NC(=O)CNC(=O)[C@H]1CCCN1C(=O)[C@H](CCCCN)NC(=O)[C@H](CC(C)C)NC(=O)[C@H](CCCCN)NC(=O)[C@H](CC(C)C)NC(=O)[C@H](CCCCN)NC(=O)[C@@H](N)CC(C)C)C(N)=O  MIC (broth microdilution; ATCC 9027, Mueller-Hinton broth; 18 h, 37 °C): 4 µM
CC[C@H](C)[C@H](NC(=O)[C@H](CC(C)C)NC(=O)[C@H](CCCCN)NC(=O)[C@@H](NC(=O)[C@H](C)NC(=O)[C@H](CCC(=O)O)NC(=O)[C@H](Cc1c[nH]cn1)NC(=O)[C@@H](NC(=O)[C@H](CCCCN)NC(=O)[C@H](CCC(N)=O)NC(=O)[C@H](Cc1ccccc1)NC(=O)[C@@H](N)C(C)C)[C@@H](C)CC)[C@@H](C)CC)C(N)=O  MIC (broth microdilution; 4007 resistant; 18 h, 37 °C): > 128 µM
CC(C)CC1NC(=O)C(C(=O)NC(C(=O)NC2C(=O)N3C2SC(C)(C)C3C(=O)O)c2ccccc2)=C1O (stereo not drawn)  MIC (pqsE mutant): 25 µg/mL
CC[C@H](C)[C@H](NC(=O)[C@H](CC(C)C)NC(=O)[C@H](CCCNC(=N)N)NC(=O)[C@@H](N)CCCNC(=N)N)C(=O)N[C@@H](CCCNC(=N)N)C(=O)N[C@H](C(=O)N[C@@H](CC(C)C)C(=O)N[C@H](C(=O)NCC(=O)N1CCC[C@H]1C(=O)N[C@H](C(=O)N[C@H](C(=O)N[C@@H](Cc1ccc(O)cc1)C(=O)N[C@@H](CC(C)C)C(=O)N[C@@H](Cc1ccc(O)cc1)C(=O)N[C@@H](Cc1ccccc1)C(=O)N[C@@H](CCCCN)C(=O)N[C@@H](CC(C)C)C(=O)N[C@@H](CCC(N)=O)C(=O)N[C@@H](CC(C)C)C(=O)N[C@@H](CC(C)C)C(=O)N[C@@H](CCCCN)C(=O)N[C@@H](CCCCN)C(N)=O)[C@@H](C)CC)[C@@H](C)CC)[C@@H](C)O)[C@@H](C)O  MIC (KCTC 1637, Mueller-Hinton broth; 24 h): 64 µM
O=[N+]([O-])[O-].O=[N+]([O-])[O-].O=[N+]([O-])[O-].[Ga+3]  MIC (broth dilution; PAO1; 22 to 24 h, 37 °C): 2 µg/mL
CC(C)C[C@H](NC(=O)[C@H](Cc1c[nH]c2ccccc12)NC(=O)[C@H](CC(C)C)NC(=O)[C@@H](NC(=O)[C@H](CC(C)C)NC(=O)[C@H](CCCNC(=N)N)NC(=O)[C@@H](N)CCCNC(=N)N)[C@@H](C)O)C(=O)N[C@H](C(=O)N[C@@H](CC(C)C)C(=O)N[C@@H](CCCNC(=N)N)C(=O)N[C@@H](CCCNC(=N)N)C(N)=O)[C@@H](C)O  MIC (broth microdilution; 27853, Mueller-Hinton broth; 24 h, 37 °C, lowest concentration, 95% inhibition, with: BSA): 4 µM
CC[C@H](C)[C@H](NC(=O)[C@H](CC(C)C)NC(=O)[C@@H](NC(=O)[C@@H](NC(=O)[C@@H](NC(=O)[C@H](CCCNC(=N)N)NC(=O)[C@H](CCCNC(=N)N)NC(=O)[C@H](CCCNC(=N)N)NC(=O)[C@@H](N)CCCNC(=N)N)C(C)C)[C@@H](C)CC)[C@@H](C)CC)C(=O)N[C@@H](CO)C(=O)N[C@@H](CC(C)C)C(=O)N[C@@H](CCCNC(=N)N)C(=O)N[C@@H](CCCNC(=N)N)C(=O)N[C@@H](CCCNC(=N)N)C(=O)N[C@@H](CCCNC(=N)N)C(=O)N[C@@H](Cc1ccccc1)C(=O)N[C@@H](CO)C(=O)N[C@@H](C)C(=O)N[C@@H](Cc1ccc(O)cc1)C(N)=O  MIC (broth microdilution; ATCC 27853; highest value reported): 8 µM
CC[C@H](C)[C@H](NC(=O)CNC(=O)[C@H](CC(=O)O)NC(=O)[C@H](CCCNC(=N)N)NC(=O)[C@@H](NC(=O)[C@H](CC(N)=O)NC(=O)[C@H](CCCNC(=N)N)NC(=O)CNC(=O)[C@@H](NC(=O)[C@H](CCCCN)NC(=O)[C@H](CCC(=O)O)NC(=O)[C@@H](NC(=O)[C@H](CCC(=O)O)NC(=O)[C@H](CCCCN)NC(=O)[C@H](Cc1ccccc1)NC(=O)[C@@H](NC(=O)[C@H](CCCCN)NC(=O)[C@H](Cc1c[nH]c2ccccc12)NC(=O)[C@@H](N)CCCNC(=N)N)[C@@H](C)CC)[C@@H](C)CC)C(C)C)C(C)C)C(=O)N[C@H](C(=O)N[C@@H](CCCCN)C(=O)N[C@@H](C)C(=O)NCC(=O)N1CCC[C@H]1C(=O)N[C@@H](C)C(=O)N[C@H](C(=O)N[C@@H](C)C(=O)N[C@H](C(=O)N[C@H](C(=O)NCC(=O)N[C@@H](CCC(N)=O)C(=O)N[C@@H](C)C(=O)N[C@@H](C)C(=O)N[C@H](C(=O)N[C@H](C(=O)N[C@H](C(=O)N[C@@H](CCCCN)C(N)=O)C(C)C)C(C)C)[C@@H](C)O)C(C)C)C(C)C)C(C)C)[C@@H](C)CC  MIC (KCCM 11328, Mueller-Hinton broth; 16 h, 37 °C; growth inhibition over 99%): 32 µM
CC1(C)S[C@@H]2[C@H](NC(=O)[C@H](N)c3ccccc3)C(=O)N2[C@H]1C(=O)O  MIC (pvdS mutant): 200 µg/mL
CC[C@H](C)[C@H](NC(=O)[C@H](Cc1ccccc1)NC(=O)[C@@H](NC(=O)[C@H](Cc1c[nH]c2ccccc12)NC(=O)[C@@H]1CCCN1C(=O)[C@@H](NC(=O)[C@H](C)N)[C@@H](C)CC)[C@@H](C)CC)C(=O)N[C@@H](Cc1ccccc1)C(=O)N[C@@H](CCCNC(=N)N)C(=O)N[C@@H](CC(C)C)C(=O)N[C@@H](CC(C)C)C(=O)N[C@@H](CCCNC(=N)N)C(=O)N[C@@H](CCCCN)C(=O)NCC(N)=O  MIC (broth microdilution; PAO1; 18 h, 37 °C): > 15 µM
CC1(C)SC2C(NC(=O)C(NC(=O)C3=C(O)C(Cc4ccc([N+](=O)[O-])cc4)NC3=O)c3ccccc3)C(=O)N2C1C(=O)O (stereo not drawn)  MIC (broth microdilution; TonB-dependent receptor mutant; PA two-allele library): 25 µg/mL
CC[C@H](C)[C@H](NC(=O)CNC(=O)[C@H](CC(=O)O)NC(=O)[C@H](CCCNC(=N)N)NC(=O)[C@@H](NC(=O)[C@H](CC(N)=O)NC(=O)[C@H](CCCNC(=N)N)NC(=O)CNC(=O)[C@@H](NC(=O)[C@H](CCCCN)NC(=O)[C@H](CCC(=O)O)NC(=O)[C@@H](NC(=O)[C@H](CCCCN)NC(=O)[C@H](CCCCN)NC(=O)[C@H](Cc1ccccc1)NC(=O)[C@@H](NC(=O)[C@H](CCCCN)NC(=O)[C@H](Cc1c[nH]c2ccccc12)NC(=O)[C@@H](N)CCCNC(=N)N)[C@@H](C)CC)[C@@H](C)CC)C(C)C)C(C)C)C(=O)N[C@H](C(=O)N[C@@H](CCCCN)C(=O)N[C@@H](C)C(=O)NCC(=O)N1CCC[C@H]1C(=O)N[C@@H](C)C(=O)N[C@H](C(=O)N[C@@H](C)C(=O)N[C@H](C(=O)N[C@H](C(=O)NCC(=O)N[C@@H](CCC(N)=O)C(=O)N[C@@H](C)C(=O)N[C@@H](C)C(=O)N[C@H](C(=O)N[C@@H](C)C(=O)N[C@@H](C)C(=O)N[C@@H](CCCCN)C(N)=O)[C@@H](C)O)C(C)C)C(C)C)C(C)C)[C@@H](C)CC  MIC (KCCM 11328, Mueller-Hinton broth; 16 h, 37 °C; growth inhibition over 99%): 4 µM
CC1(C)S[C@@H]2[C@H](NC(=O)C(C(=O)O)c3ccccc3)C(=O)N2[C@H]1C(=O)O (stereo partly drawn)  MIC (pvdA mutant): 12.5 µg/mL
CC[C@H](C)[C@H](N)C(=O)N[C@@H](CC(C)C)C(=O)NCC(=O)N[C@H](CCCCN)C(=O)N[C@H](C(=O)N[C@@H](Cc1c[nH]c2ccccc12)C(=O)N[C@@H](CCCCN)C(=O)NCC(=O)N[C@H](C(=O)N[C@@H](CCCCN)C(=O)N[C@@H](CC(=O)O)C(=O)N[C@H](C(=O)N[C@@H](CC(C)C)C(N)=O)[C@@H](C)CC)[C@@H](C)CC)[C@@H](C)CC  MIC (broth microdilution; ATCC BAA-427, Mueller-Hinton broth; 16 h, 37 °C): 50 µM
